Experimental data collected from several papers.
Numbered parts are unrelated; each lists some results of a single study.

Sample 1
Target: Phosphate system positive regulatory protein PHO4, full length, GST-tagged (PHO4, Saccharomyces cerevisiae, UniProt P07270, residues 1-312)
Technique: competition protein-binding microarray
Molecule type: double-stranded DNA, one strand shown
Medium: in vitro
Tested at: 2 µM
Notes: whole 60-bp probe, lowest competitor level
Added: Cbf1 competitor, 0.05 µM
Direction: higher = stronger binding
Target sequence (chain): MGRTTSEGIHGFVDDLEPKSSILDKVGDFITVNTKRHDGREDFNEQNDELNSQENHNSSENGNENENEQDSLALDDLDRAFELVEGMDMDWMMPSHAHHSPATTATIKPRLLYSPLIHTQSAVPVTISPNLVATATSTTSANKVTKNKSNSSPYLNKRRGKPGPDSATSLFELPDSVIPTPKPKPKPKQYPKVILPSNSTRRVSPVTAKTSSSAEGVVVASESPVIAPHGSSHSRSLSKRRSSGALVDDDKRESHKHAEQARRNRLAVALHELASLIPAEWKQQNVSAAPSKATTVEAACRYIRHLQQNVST
| Strand | fluorescence intensity |
| --- | --- |
| CGGGGTTAAGTTTGCGGCGTGGGTGGCTTGCAGCAGGTCTTGATTCGCTTGACGCTGCTG | 8670 a.u. |
| TCACGAATCCTTCTCTAACTTACGTTCAAGAGGTTCGTCTTGATTCGCTTGACGCTGCTG | 2800 a.u. |
| CACTCTGCTCACCGCTGCGTGCTTTTTGAACAAATTGTCTTGATTCGCTTGACGCTGCTG | 9380 a.u. |

Sample 2
Target: Interferon regulatory factor 5, full length, phosphomimetic (IRF5, Homo sapiens, UniProt Q13568-2, residues 1-514, K96S/S451D/S453D/S456D/S462D)
Technique: protein-binding microarray
Molecule type: double-stranded DNA, one strand shown
Medium: in vitro
Tested at: 250 nM
Notes: 60-bp whole probe
Added: salmon DNA 0.4 mg/ml
Relative to: random background probes
Direction: higher = stronger binding
| Strand | log fluorescence [z-score] |
| --- | --- |
| GCCTAGCACTTAGATTTCGGGACCGGATTAGTGCTAGTCTTGATTCGCTTGACGCTGCTG | 2.88 |
| GCCTAGCACTCAGGTCTCTTGTTCTCACTGTGCTAGGTCTTGATTCGCTTGACGCTGCTG | -0.0883 |
| GCCTAGCACTTAGGTATCGGGTATCGGTGAGTGCTAGTCTTGATTCGCTTGACGCTGCTG | 5.46 |

Sample 3
Target: Histone acetyltransferase KAT6A, winged helix 1, GST fusion (KAT6A, Homo sapiens, UniProt Q92794, residues 1-85)
Technique: protein binding microarray
Molecule type: double-stranded DNA, one strand shown
Medium: in vitro
Tested at: not given
Notes: 8-mer, flanks averaged, mean of 2 arrays, mostly near background
Relative to: not given
Direction: higher = stronger binding
Target sequence (chain): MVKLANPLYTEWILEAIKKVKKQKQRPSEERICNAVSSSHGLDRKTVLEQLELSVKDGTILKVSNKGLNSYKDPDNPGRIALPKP
| Strand | E-score |
| --- | --- |
| AGCGTTGC | 0.153 |
| CTAATCCC | 0.106 |
| GGCGACTA | 0.0969 |

Further values, each from its own experiment
| Substance | target | test | system | conditions | how to read | endpoint | value |
| --- | --- | --- | --- | --- | --- | --- | --- |
| PhoQ, residues 284 288 289 292 302 303 GASLAW | PhoP, residues 12 14 15 18 19 SPWRL (Escherichia coli, UniProt P23836) | Sort-seq, item: YFP reporter | E. coli | PhoQ-PhoP variant library, added: 10 µM Mg2+ | relative to: high Mg2+ state, higher = stronger signaling | fold induction | 0.645 |

A few entries again (sample 2):
| Strand | log fluorescence [z-score] |
| --- | --- |
| GCCTAGCACTCAGGTCTCTTGTTCTCACTGTGCTAGGTCTTGATTCGCTTGACGCTGCTG | -0.0883 |
